{"data": "Assay results collected from several papers", "note": "Every numbered part comes from another study and shows a few of its results, in no order."}
{"data": "Sample 1", "target": "Sal-like protein 4, full length isoform B (SALL4, Homo sapiens, UniProt Q9UJQ4-2, residues 1-616)", "technique": "universal PBM", "molecule type": "double-stranded DNA, one strand shown", "matrix": "in vitro", "tested at": "not given", "notes": "8-mer, flanks averaged, mean of replicates", "reading": "higher = stronger binding", "Target sequence (chain)": "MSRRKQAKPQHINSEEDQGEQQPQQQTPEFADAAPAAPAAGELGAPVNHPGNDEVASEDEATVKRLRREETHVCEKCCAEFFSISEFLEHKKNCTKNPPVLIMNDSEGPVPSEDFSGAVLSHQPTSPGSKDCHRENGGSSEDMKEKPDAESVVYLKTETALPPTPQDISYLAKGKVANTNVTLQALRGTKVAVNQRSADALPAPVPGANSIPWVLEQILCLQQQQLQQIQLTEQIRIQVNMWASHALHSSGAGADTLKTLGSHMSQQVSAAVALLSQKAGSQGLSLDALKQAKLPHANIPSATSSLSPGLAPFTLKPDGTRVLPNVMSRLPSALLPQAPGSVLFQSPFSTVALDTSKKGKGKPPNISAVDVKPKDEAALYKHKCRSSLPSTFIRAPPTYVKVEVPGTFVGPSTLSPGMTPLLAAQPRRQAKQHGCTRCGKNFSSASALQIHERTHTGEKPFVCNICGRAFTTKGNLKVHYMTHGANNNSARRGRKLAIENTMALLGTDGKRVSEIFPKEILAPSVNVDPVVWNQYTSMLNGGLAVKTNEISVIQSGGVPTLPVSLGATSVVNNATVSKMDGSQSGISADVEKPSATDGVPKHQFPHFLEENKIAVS"}
{"Sequence": "ATGACGTC", "E-score": -0.00693}
{"Sequence": "TCTCTCAA", "E-score": 0.102}
{"Sequence": "CCTAATTC", "E-score": 0.117}
{"Sequence": "CGCATGAC", "E-score": -0.197}
{"Sequence": "CTCACCTA", "E-score": 0.157}
{"Sequence": "GCGGAGAC", "E-score": -0.192}
{"Sequence": "ATCCGCCA", "E-score": -0.0533}
{"Sequence": "AGACGCTA", "E-score": -0.141}
{"Sequence": "CTATCAGC", "E-score": 0.0785}
{"Sequence": "ACATTGGG", "E-score": -0.0905}
{"Sequence": "CTCAGAAA", "E-score": 0.0584}
{"Sequence": "AAGAATGC", "E-score": 0.113}
{"Sequence": "CATGTTAG", "E-score": 0.117}
{"Sequence": "CCAGGGGA", "E-score": -0.238}
{"Sequence": "ACTGTCAG", "E-score": -0.0426}
{"Sequence": "ACAACCTC", "E-score": 0.00891}
{"Sequence": "AAGCTGAG", "E-score": 0.0032}
{"Sequence": "ATCTTGGG", "E-score": -0.0483}
{"Sequence": "TCGGTCAA", "E-score": -0.0799}
{"Sequence": "ACTATGAC", "E-score": 0.162}
{"Sequence": "CTTAGAAC", "E-score": 0.0706}
{"Sequence": "GTAGTTCA", "E-score": 0.0501}
{"Sequence": "CATGCTTA", "E-score": 0.192}
{"Sequence": "CTAAATGC", "E-score": 0.0341}
{"Sequence": "GTGTGAGA", "E-score": 0.0305}
{"data": "Sample 2", "target": "RNA binding protein fox-1 homolog 2, RRM domain, GST-SBP tag (RBFOX2, Homo sapiens, UniProt O43251-10, residues 100-194)", "technique": "RNA Bind-n-Seq", "molecule type": "RNA", "matrix": "in vitro", "tested at": "365 nM", "notes": "natural RNA segment, single round, ends assumed", "reference": "no-protein control", "reading": "higher = stronger binding", "Construct (chain)": "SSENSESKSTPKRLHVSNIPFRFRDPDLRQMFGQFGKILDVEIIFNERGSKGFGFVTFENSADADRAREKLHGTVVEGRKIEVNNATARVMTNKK"}
{"Sequence": "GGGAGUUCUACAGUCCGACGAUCACAUUUUUGUUUUGCUUGCCAUGAAUUUCAACUUCCACCACCCAGUGAAUUGAUUUAUAAAUUGCUAUGCUUUGCUGUUUUUCUGUUGCUGUGGAACUUAAAGAAUGUGAUGGAAUUCUCGGGUGCCAA", "RBNS enrichment (R)": 1.07}
{"Sequence": "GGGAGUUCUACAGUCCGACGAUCCGAUAAGAGUAGUAGGCACCACAUGUAAGUCAGGGUCAAAUACUUGGAUAUUUAUCUGCAUAUGCAAAUUAAAAUAAUUAGAAACUUUCUACCUAGUACGUCAUGUUGUAUGGAAUUCUCGGGUGCCAA", "RBNS enrichment (R)": 0.483}
{"Sequence": "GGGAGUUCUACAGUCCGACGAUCGUUCUUUCACAUUUGCCCCAGCAAAACCCCAUCUAACACAACUGACUUUCCAAAGAACCCUUAAGUUUCCAUUUCCCAGUGGCAAUAACUGUGACCUGAUCCCUACCCCAUGGAAUUCUCGGGUGCCAA", "RBNS enrichment (R)": 0.577}
{"Sequence": "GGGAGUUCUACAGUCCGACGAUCUCCUCUUCCUCCUGCUCUGGGUUGGCAUCUACGUUAAGUCUCCAAGGGUACCCACCAGGCAGCUCACCAAGUCUCUGCUUUUGUAAAUUAAUUUUUUACCAUUGCUACGUUGGAAUUCUCGGGUGCCAA", "RBNS enrichment (R)": 0.587}
{"Sequence": "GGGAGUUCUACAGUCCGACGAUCACUAAGUAGUCUUUCUGAAAACUGUUGGGUUCUAGGCAUUCCUGAGAAAUUGAAAGUGGCUACCUUUCAUGUCAAAAAUGUUGAUCUAUUAUAAAUAAAAUGUUUUUGCAUGGAAUUCUCGGGUGCCAA", "RBNS enrichment (R)": 0.44}
{"Sequence": "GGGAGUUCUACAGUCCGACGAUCUUAUAACUUAUUUCAGAUGUGUCCUUUUAUUGUACAUUUUGUAUAAUAAAUGUUGAAGUUGAAAACUUUACUCGUUUCUAGUUCUUGUGUGAGUUCAUACGUGCCAUAACUGGAAUUCUCGGGUGCCAA", "RBNS enrichment (R)": 0.302}
{"Sequence": "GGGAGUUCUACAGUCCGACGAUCACAAAAGUGCCUGGCAUCCACUACUGCUGCCUUUCAUUUAUAAUAAUAGCCCUUCCAUCUGGCAGUGGGGGUAGAAUACACUCUUGACAUUCUUGUCUCCUGCUUUAGAAUGGAAUUCUCGGGUGCCAA", "RBNS enrichment (R)": 0.428}
{"Sequence": "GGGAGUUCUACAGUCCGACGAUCUUAAAGUGUCAGACUAAAUUUUUAGAAGAAAACAGAAAUUCAGGUGUGUGUUCAUUAUAGGUUAUUCAGCAAAGUGGACCCUGACAGUUUCUCGGUUUCCCCAGUGCUGAUGGAAUUCUCGGGUGCCAA", "RBNS enrichment (R)": 0.75}
{"data": "Sample 3", "organism": "Saccharomyces cerevisiae", "read-out": "peptide binding", "technique": "yeast competitive growth sequencing", "molecule type": "peptide", "strain": "cyclin-Cln2 fusion strain", "tested at": "concentration not given", "notes": "library 1", "reading": "direction not given"}
{"Molecule": "GSALKKLFTSTGL", "binding score": 0.408}
{"Molecule": "GSPAKKLFTSTGL", "binding score": -0.183}
{"Molecule": "ASPLKKLFTSTGL", "binding score": 0.289}
{"data": "Sample 4", "target": "Myc proto-oncogene protein, bHLH-zipper, MAX partner unstated (MYC, Homo sapiens, UniProt P01106, residues 368-449)", "technique": "protein-binding microarray", "molecule type": "double-stranded DNA, one strand shown", "matrix": "in vitro", "tested at": "not given", "notes": "k-mer, scored over probes, only values ≥0.25", "reading": "higher = stronger binding", "sequence of UniProt P01106 (368-449, looked up)": "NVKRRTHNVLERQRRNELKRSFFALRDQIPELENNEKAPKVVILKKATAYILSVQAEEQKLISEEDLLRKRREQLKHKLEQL"}
{"Sequence": "CCATGCCC", "E-score": 0.322}
{"Sequence": "CGTGCGAG", "E-score": 0.349}
{"Sequence": "GTGTCCCA", "E-score": 0.277}
{"Sequence": "CATGAGAC", "E-score": 0.252}
{"Sequence": "ACCTCATG", "E-score": 0.459}
{"Sequence": "GACCGCGC", "E-score": 0.252}
{"Sequence": "CTCCACGA", "E-score": 0.32}
{"Sequence": "ACATGGCA", "E-score": 0.403}
{"Sequence": "AGAGCACG", "E-score": 0.354}
{"Sequence": "CGCCCACA", "E-score": 0.31}
{"Sequence": "TGCCGGCA", "E-score": 0.375}
{"Sequence": "GCGTGCAA", "E-score": 0.395}
{"Sequence": "AGCACATG", "E-score": 0.481}
{"Sequence": "AGCACGCT", "E-score": 0.413}
{"Sequence": "ACCGCACG", "E-score": 0.36}
{"Sequence": "GCGTGGGA", "E-score": 0.398}
{"Sequence": "CACGCTAC", "E-score": 0.373}
{"Sequence": "CATGGTGA", "E-score": 0.346}
{"Sequence": "CCCTCCCC", "E-score": 0.346}
{"Sequence": "CCCGTCCC", "E-score": 0.283}
{"Sequence": "CACGTCGG", "E-score": 0.25}
{"Sequence": "AACGTGTG", "E-score": 0.402}
{"data": "Sample 5", "target": "RING finger protein unkempt homolog, zinc fingers 1-6, GST-SBP tag (UNK, Homo sapiens, UniProt Q9C0B0, residues 30-357)", "technique": "RNA Bind-n-Seq", "molecule type": "RNA", "matrix": "in vitro", "tested at": "not given", "notes": "RNA with constant flanks, human-mouse chimeric sites, ends assumed", "reference": "input RNA pool", "reading": "higher = stronger binding", "Residues (chain)": "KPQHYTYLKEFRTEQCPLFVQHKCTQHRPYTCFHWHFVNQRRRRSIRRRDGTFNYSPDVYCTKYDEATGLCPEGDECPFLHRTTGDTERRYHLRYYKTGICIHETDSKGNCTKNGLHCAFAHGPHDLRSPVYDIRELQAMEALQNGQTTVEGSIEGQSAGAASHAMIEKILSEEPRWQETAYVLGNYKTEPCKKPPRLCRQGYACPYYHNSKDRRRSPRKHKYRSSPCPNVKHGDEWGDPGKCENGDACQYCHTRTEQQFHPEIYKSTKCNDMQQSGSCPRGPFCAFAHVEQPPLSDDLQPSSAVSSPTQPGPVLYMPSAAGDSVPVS"}
{"Sequence": "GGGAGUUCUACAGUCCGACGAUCUCUGGUCACACUCGUGUGUAUGGUGUUUGCUUUGUUGACACUUCACUGGGCAAGUUUUUCAUAGGUCAGUUUUCGGAUGACCGCCACUGUUCCAGAUUUAGGACGCUAGUGGCUCACUAUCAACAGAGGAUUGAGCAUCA", "bound/input enrichment [ratio]": 0.239}
{"Sequence": "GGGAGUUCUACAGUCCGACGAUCCUGGCCUUCUGAGCAUCAGGGGCCUCCUUUCGUAUAGUAACUGUCAGUGCAUCAGAUACUUUCAGCUGCAACUCCCUACUGGGUGGGGCACCCAUUUCAGGCAGAAGGUUUUGGUACCCUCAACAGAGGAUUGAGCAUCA", "bound/input enrichment [ratio]": 0.265}
{"Sequence": "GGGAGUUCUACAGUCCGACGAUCCGCUGGCCCAAGCUGAUGUAAAUGUUUGGCCUCCAUCUCUCAGGCACGUGUGCCUUCUCUUAGUCCCUGUUUUCGGGAUGUUAUGAAUCUCAGUACUGUGGUUUGAAAGCAGUUAUGUUGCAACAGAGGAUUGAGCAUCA", "bound/input enrichment [ratio]": 0.244}
{"Sequence": "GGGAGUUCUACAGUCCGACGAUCUGACAAGGGCACUGCAGAGCCAUGCCUUUCUUGGACAUACAGAAAAAGCUGGGCAUCAGCCUGGACCGGCACUUUAUGUUCCUAAGCGCAGAACAGCCCUAUAAGAACGCCGCUCGGUGCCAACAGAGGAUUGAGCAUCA", "bound/input enrichment [ratio]": 0.0802}
{"Sequence": "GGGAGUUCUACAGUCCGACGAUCCUGUGACUGAUGGCAGCUACCUGAGUGGCAGCUGAAGUUGACUCCCUCUCCUUGCCUGAACCCCCCCCCACUGCCCCCCCAUCCCCCAGUGUCGGCUGAGAUGUUGCCAGCAGACAGUUCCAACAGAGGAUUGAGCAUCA", "bound/input enrichment [ratio]": 0.661}
{"Sequence": "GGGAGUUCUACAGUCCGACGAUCGCUCCUCCCCGCUCUGCCCCUGCCUGCCUUUUGGCAAGGACCAGAAUCCAGCUUUCUUUUAAAACUCUCAGUGUAACUGUAUCCCGUGACAUUUCAUUUUUUUUAAAUAGUGUAUUUUUUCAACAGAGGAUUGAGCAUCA", "bound/input enrichment [ratio]": 5.3}
{"Sequence": "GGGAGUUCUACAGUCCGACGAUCUUUGUUUUUAUGCUAAGCACACGUGCUGGUGGUCUGGGCAUCAAUCUUGCAACUGCUGAUGUAGUCAUUUUGUAUGACUCAGAUUGGAAUCCGCAAGUUGAUCUUCAGGCUAUGGACCGUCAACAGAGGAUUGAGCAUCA", "bound/input enrichment [ratio]": 0.128}
{"Sequence": "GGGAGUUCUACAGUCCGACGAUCUCUUAACUUAUUCAUUUAACUUAUUUUUAUAGCUAGAUAAAUAUUGUUAGUCUUAGACAAUAGCUCACAUUUUUUGAAAAGCAUGCUCUCCCUGUCCAUUGGGCCCAUAACAUGACCCAGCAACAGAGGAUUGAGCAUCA", "bound/input enrichment [ratio]": 90.5}
{"note": "Some of these lines once more (sample 4):"}
{"Sequence": "GACCGCGC", "E-score": 0.252}
{"Sequence": "CTCCACGA", "E-score": 0.32}
{"Sequence": "ACATGGCA", "E-score": 0.403}
{"Sequence": "AGAGCACG", "E-score": 0.354}
